Measured values collected from several papers.
Protocols differ between the studies behind these lines. ± marks the error that the study gave.
CDPK1: Calmodulin-domain protein kinase 1 (CDPK1, Toxoplasma gondii, UniProt Q9BJF5)
SUMO-activating enzyme subunit 2 with SAE1: SUMO-activating enzyme subunit 2, with SAE1 (Homo sapiens, UniProt Q9UBT2)
KCNJ13 M125R: Inward rectifier potassium channel 13 (KCNJ13, Homo sapiens, UniProt O60928, M125R)
Beta-glucuronidase: Beta-glucuronidase (Streptococcus agalactiae serotype V, UniProt Q8E0N2)
cyp121: Mycocyclosin synthase (cyp121, Mycobacterium tuberculosis, UniProt P9WPP7)
uidA: Beta-glucuronidase (uidA, Escherichia coli, UniProt P05804)

By UniProt entry, the sequences of proteins in these tests, tags left out. Residues count along the entry.
UniProt O60928, whole entry M125R: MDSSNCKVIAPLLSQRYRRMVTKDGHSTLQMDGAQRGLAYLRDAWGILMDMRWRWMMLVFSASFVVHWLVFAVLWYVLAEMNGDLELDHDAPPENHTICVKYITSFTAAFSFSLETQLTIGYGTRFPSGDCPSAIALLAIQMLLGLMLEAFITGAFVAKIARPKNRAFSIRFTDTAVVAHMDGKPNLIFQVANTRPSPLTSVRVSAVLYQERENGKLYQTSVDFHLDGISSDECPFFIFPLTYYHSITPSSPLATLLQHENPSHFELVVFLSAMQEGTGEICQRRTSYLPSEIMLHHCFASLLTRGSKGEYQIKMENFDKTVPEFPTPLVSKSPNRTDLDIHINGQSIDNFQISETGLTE
UniProt Q00960, 27-1482 limits assumed: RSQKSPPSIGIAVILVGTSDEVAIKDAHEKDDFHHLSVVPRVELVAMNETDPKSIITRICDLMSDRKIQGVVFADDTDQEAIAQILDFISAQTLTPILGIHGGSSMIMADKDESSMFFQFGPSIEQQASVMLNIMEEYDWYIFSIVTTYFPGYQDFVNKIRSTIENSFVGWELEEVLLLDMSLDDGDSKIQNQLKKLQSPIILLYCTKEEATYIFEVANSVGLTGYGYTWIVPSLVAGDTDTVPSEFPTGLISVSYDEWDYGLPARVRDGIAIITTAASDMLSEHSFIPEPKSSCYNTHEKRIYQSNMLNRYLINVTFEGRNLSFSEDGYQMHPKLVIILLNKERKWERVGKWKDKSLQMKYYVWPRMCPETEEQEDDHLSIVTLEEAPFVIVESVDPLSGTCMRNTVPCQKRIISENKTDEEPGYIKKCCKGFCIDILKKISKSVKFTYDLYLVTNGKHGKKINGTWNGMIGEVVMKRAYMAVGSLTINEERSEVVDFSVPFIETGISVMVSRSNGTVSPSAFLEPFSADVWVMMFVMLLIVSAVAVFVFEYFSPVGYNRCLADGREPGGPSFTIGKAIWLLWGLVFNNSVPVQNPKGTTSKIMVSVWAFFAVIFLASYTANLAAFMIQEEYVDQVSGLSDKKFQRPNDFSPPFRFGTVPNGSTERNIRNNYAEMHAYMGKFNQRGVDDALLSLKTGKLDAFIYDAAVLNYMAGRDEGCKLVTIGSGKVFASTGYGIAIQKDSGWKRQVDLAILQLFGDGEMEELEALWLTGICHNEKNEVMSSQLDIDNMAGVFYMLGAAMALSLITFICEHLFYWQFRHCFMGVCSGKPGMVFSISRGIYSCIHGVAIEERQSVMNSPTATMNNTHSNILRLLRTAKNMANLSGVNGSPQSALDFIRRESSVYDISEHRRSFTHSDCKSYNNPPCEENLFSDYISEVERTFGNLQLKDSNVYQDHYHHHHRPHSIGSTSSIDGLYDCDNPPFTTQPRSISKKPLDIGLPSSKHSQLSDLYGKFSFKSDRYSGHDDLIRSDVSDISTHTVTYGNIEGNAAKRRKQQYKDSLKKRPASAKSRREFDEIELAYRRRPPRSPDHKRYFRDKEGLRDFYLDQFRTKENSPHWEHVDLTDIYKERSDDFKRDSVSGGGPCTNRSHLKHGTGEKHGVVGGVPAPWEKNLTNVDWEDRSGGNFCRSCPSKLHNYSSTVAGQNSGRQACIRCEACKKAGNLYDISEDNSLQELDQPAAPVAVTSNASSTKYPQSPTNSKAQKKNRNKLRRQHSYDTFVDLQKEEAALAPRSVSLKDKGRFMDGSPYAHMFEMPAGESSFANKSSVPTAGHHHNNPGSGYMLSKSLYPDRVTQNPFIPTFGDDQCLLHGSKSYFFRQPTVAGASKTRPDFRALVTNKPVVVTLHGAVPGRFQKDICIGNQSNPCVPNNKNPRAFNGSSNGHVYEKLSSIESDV
UniProt Q2FV99, 60-206 limits assumed: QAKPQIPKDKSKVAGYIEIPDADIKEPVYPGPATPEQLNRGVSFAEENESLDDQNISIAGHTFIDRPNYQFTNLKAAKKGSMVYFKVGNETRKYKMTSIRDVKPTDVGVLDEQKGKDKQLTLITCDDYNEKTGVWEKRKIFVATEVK
UniProt P54098, whole entry: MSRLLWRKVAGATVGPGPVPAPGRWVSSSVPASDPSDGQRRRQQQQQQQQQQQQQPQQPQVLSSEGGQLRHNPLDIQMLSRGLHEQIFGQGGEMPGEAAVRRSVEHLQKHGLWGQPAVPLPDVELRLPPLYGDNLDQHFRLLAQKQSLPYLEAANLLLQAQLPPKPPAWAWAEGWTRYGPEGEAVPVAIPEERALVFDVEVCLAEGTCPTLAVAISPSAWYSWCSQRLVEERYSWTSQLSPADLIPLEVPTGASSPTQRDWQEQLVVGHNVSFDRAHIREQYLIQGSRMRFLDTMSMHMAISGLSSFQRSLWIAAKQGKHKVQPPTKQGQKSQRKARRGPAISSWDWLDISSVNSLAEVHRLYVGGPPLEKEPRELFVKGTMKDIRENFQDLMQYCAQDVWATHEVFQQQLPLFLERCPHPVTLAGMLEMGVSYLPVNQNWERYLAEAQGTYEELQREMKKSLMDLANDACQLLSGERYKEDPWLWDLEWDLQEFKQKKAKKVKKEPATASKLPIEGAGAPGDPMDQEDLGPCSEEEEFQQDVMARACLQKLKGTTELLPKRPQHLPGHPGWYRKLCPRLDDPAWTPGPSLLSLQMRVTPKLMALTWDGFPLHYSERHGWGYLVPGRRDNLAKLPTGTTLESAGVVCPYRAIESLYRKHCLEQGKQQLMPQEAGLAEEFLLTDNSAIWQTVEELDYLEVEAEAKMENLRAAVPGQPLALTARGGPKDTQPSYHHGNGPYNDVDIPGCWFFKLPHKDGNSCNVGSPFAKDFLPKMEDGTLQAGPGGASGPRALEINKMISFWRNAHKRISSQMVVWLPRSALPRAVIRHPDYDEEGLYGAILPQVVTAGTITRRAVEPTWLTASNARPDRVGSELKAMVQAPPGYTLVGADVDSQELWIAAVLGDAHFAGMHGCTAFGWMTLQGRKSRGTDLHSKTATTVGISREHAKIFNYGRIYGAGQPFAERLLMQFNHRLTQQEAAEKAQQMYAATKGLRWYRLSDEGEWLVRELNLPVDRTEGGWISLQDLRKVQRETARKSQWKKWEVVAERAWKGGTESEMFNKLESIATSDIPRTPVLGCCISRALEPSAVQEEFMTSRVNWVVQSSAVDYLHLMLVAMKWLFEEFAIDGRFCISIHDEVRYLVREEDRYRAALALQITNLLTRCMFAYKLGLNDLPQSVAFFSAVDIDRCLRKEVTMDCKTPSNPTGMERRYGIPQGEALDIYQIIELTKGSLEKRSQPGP
UniProt Q07440, whole entry P104K/C113S, looked up: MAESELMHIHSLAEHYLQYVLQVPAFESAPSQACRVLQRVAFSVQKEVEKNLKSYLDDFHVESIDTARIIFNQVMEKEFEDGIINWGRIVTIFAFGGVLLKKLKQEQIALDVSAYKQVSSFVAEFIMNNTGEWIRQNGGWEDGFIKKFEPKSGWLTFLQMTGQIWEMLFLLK
UniProt P0AC78, whole entry: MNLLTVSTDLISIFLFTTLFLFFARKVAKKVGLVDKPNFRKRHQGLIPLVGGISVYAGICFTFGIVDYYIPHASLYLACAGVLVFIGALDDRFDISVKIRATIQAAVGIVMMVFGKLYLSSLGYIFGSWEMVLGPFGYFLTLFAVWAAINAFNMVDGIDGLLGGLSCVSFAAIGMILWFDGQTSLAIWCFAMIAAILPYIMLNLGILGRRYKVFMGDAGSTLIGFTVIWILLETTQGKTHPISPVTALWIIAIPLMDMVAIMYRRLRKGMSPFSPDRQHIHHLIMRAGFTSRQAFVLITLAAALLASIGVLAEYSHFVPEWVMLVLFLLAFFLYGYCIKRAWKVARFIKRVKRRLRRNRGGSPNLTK
UniProt P25779, whole entry, looked up: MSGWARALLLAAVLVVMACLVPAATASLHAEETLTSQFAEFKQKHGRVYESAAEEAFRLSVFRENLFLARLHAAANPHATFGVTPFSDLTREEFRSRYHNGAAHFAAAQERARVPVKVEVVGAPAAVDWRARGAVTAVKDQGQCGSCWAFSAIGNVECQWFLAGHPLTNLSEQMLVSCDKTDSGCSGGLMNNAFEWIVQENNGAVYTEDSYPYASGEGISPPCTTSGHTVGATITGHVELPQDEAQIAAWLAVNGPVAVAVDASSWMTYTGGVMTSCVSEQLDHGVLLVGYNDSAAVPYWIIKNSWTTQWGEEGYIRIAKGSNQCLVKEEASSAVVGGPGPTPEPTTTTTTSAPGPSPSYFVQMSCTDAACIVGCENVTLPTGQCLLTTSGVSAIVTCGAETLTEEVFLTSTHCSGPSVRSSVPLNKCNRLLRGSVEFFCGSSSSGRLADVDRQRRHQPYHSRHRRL
UniProt P81908, whole entry: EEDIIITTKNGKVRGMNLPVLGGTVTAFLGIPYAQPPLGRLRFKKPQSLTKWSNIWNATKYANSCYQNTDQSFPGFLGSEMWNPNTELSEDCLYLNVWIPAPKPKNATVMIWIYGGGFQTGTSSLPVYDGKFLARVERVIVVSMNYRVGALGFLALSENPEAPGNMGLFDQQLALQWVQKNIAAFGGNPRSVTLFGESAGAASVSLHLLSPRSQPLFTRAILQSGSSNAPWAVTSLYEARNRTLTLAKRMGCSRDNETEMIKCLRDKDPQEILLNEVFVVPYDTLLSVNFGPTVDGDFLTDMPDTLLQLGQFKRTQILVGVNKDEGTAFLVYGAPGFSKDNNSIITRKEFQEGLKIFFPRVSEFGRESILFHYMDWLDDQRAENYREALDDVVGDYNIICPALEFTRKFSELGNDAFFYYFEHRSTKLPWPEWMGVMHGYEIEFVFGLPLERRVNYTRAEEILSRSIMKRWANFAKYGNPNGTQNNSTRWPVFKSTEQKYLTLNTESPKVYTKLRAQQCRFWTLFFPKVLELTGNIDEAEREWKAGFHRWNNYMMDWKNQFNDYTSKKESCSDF
UniProt Q8IBS5, whole entry: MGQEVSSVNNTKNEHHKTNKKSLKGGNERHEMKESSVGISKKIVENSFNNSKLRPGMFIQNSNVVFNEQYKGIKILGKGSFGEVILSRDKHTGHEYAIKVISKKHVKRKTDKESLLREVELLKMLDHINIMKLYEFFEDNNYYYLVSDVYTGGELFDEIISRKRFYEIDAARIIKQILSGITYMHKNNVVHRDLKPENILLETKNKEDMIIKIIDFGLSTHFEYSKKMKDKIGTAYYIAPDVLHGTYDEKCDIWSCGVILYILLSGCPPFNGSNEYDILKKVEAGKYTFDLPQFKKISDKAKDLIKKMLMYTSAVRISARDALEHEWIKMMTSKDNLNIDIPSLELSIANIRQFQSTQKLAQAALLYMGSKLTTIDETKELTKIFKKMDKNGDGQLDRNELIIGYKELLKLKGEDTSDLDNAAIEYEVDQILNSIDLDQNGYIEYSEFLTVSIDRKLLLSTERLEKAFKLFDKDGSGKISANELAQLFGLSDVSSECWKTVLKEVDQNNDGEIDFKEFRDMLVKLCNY
UniProt Q9Y251, whole entry, looked up: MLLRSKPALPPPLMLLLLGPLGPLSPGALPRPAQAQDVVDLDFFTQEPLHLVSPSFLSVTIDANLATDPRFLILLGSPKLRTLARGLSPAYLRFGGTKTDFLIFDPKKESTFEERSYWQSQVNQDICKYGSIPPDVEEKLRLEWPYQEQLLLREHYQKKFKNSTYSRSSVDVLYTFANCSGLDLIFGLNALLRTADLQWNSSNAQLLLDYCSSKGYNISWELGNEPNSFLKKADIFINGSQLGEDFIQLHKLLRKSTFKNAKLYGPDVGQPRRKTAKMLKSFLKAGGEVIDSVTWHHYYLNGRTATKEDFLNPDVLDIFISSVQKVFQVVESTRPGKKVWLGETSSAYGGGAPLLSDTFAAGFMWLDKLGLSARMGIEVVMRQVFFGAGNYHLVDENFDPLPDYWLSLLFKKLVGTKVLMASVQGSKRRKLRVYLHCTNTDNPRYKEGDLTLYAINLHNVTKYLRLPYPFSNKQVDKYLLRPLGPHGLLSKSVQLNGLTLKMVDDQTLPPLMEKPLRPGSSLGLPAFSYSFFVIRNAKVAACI

SMILES | target | assay | test system | conditions | endpoint | value
N=C(N)c1ccc(OCCOCCOc2ccc(C(=N)N)cc2)cc1 | Glutamate NMDA receptor; Grin1/Grin2b, ifenprodil binding site (Grin1/Grin2b, Rattus norvegicus, UniProt P35439+Q00960) |  |  | pH 7.4 | IC50 | 63.8 µM
O=C(O)CCOc1c(SSc2cnn(-c3ccccc3)c(=O)c2OCCC(=O)O)cnn(-c2ccccc2)c1=O | srtA (Staphylococcus aureus, UniProt Q2FV99) | inhibitor |  |  | IC50 | 6.1 ± 0.5 µM
N#Cc1ccc(Sc2cc(C(N)=O)c3ccccc3n2)cc1 | CDPK1 | kinase activity, inhibitor, ELISA |  | added: syntide-2 substrate, ATP 25 µM | IC50 | > 20 µM
NCc1ccc(-c2ncc(OCC3CCNCC3)nc2-c2ccc(-c3ccoc3)cc2)cc1 | Genome polyprotein, NS2B-NS3 protease (ZIKV, UniProt A0A024B7W1) | enzyme activity, inhibitor |  | Gly4-Ser-Gly4-linked NS2B-NS3 protease | IC50 | 0.2 ± 0.01 µM
Nc1nc2c(ncn2[C@@H]2CC[C@H](OC(C(=O)O)P(=O)(O)O)C2)c(=O)[nH]1 (relative stereo) | DNA polymerase catalytic subunit (Human cytomegalovirus, UniProt P08546) | inhibitor |  | added: [3H]dGTP, calf thymus DNA | IC50 | 20 ± 9 µM
CC1=C([C@H](O)CC(=O)O[C@H](C)[C@@H](C)[C@H](O)CC(=O)[C@@H](C)[C@@H](O)CCCCCOC(=O)CC(C)C)C(=O)OC1=O | PPP2CA (Homo sapiens, UniProt P67775) | enzyme activity, inhibitor, malachite green |  | 30 °C, added: phosphopeptide KRpTIRR 40 µM | IC50 | 0.28 ± 0.028 µM
O=c1ccn([C@@H]2O[C@H](COP(=O)(O)OP(=O)(O)OP(=O)(O)O)[C@@H](O)[C@]2(F)Br)c(=O)[nH]1 | POLG (Homo sapiens, UniProt P54098) | polymerase activity, inhibitor |  | 37 °C | IC50 | > 100 µM
Nc1c(S(=O)(=O)Oc2ccccc2NC(=O)Cc2c[nH]c3ccccc23)ccc2ccccc12 | ALPL (Homo sapiens, UniProt P05186) |  |  |  | IC50 | 2.86 ± 0.06 µM
Cc1ccc(N=Nc2c(O)ccc3cc(S(=O)(=O)O)ccc23)cc1 | Bcl-2-related protein A1 (Mus musculus, UniProt Q07440, C113S/P104K) | binding, fluorescence polarization |  | added: FITC-Noxa peptide | IC50 | 120 µM
COC(=O)C1=C(C(=O)OC)C2([C@H](Cc3ccccc3)Nc3ccccc3)C=CC1O2 (stereo partly drawn) | SUMO-activating enzyme subunit 2 with SAE1 | SUMOylation, inhibitor, AlphaScreen |  | added: SUMO1-RanGAP1 conjugation | IC50 | 4.87 µM
CO[C@H]1[C@H](O[C@H]([C@H]2O[C@@H](n3ccc(=O)[nH]c3=O)[C@H](O)[C@@H]2O)[C@H](NCCCNC(=O)[C@@H](NC(=O)[C@@H](NC(=O)N[C@H](C(=O)O)C(C)C)[C@@H]2CCNC(=N)N2)[C@@H](OC(=O)CCCCCCCCCCCCN(O)C(=N)N)C(C)C)C(N)=O)O[C@H](CN)[C@H]1O | Undecaprenyl-phosphate alpha-N-acetylglucosaminyl 1-phosphate transferase (wecA, Escherichia coli, UniProt P0AC78) | enzyme activity, inhibitor |  |  | IC50 | 0.085 ± 0.002 µM
NC(=O)c1cc(Sc2ccc(Oc3ccccc3)cc2)nc2ccccc12 | CDPK1 | kinase activity, inhibitor, ELISA |  | added: syntide-2 substrate, ATP 25 µM | IC50 | 1.3 µM
O=C(O)COCCN1CCN(C(c2ccccc2)c2ccc(Cl)cc2)CC1 (stereo not drawn) | RNMT (Homo sapiens, UniProt O43148) | enzyme activity, inhibitor |  |  | IC50 | 102 ± 21 µM
N=C(N)c1ccc(NCCCCCNc2ccc(C(=N)N)cc2)cc1 | Grin1/Grin2a/Grin2b, MK-801 channel binding site (Rattus norvegicus, UniProt P35439+Q00959+Q00960) |  |  | pH 7 | IC50 | 3.1 ± 0.11 µM
N#Cc1cccc(C(=O)NC2CCN(Cc3cc(Cl)c4cccnc4c3O)CC2)c1 | KCNJ13 M125R | ion current, inhibitor, thallium flux | T-REx-HEK293 |  | IC50 | 12.4 µM
O=C(COC(=O)CNC(=O)c1ccccc1Cl)Nc1cc(C(F)(F)F)ccc1Cl | Cruzipain (Trypanosoma cruzi, UniProt P25779) | enzyme activity, inhibitor |  |  | IC50 | 0.22 µM
O=C(NO)c1cccc(F)c1F | Histone deacetylase 6, CD2 catalytic domain (hdac6, Danio rerio, UniProt F8W4B7) | enzyme activity, inhibitor, fluorogenic |  | 30 min, added: Ac-RHK(Ac)K(Ac)-AMC | IC50 | 1.7 ± 0.2 µM
c1ccc(-c2ccc3c(n2)sc2c(N4CCNCC4)ncnc23)cc1 | Beta-glucuronidase | enzyme activity, inhibitor |  |  | IC50 | 0.52 ± 0.09 µM
CC(C)[C@H](NC(=O)N[C@@H](CCCCN)C(=O)N[C@@H](CNC(=O)CCCCCCCCCCS)C(=O)NCCCNC(C[C@H]1O[C@@H](n2ccc(=O)[nH]c2=O)[C@H](O)[C@@H]1O)C(=O)O)C(=O)O (stereo partly drawn) | mraY (Staphylococcus aureus, UniProt Q2FZ93) | enzyme activity, inhibitor | crude membranes | added: dansylated Park's nucleotide | IC50 | 0.068 ± 0.004 µM
C=CC[C@@H](Nc1ccccc1)C12C=CC(O1)C(C(=O)OC)=C2C(=O)OC (stereo partly drawn) | SUMO-activating enzyme subunit 2 with SAE1 | SUMOylation, inhibitor, AlphaScreen |  | added: SUMO1-RanGAP1 conjugation | IC50 | 1.69 µM

SMILES | target | assay | test system | conditions | endpoint | value
CCC(c1ccc(-c2ccc(SC)cc2)cc1)n1ccnc1 (stereo not drawn) | cyp121 | binding |  |  | Kd | 3 ± 0.74 µM
CCN(C)C(=O)Oc1ccc(/C=C/C(=O)NC2CCN(Cc3ccccc3)CC2)cc1 | Cholinesterase (BCHE, Equus caballus, UniProt P81908) | enzyme activity, inhibitor, Ellman |  |  | IC50 | 0.97 ± 0.02 µM
CNc1nc(N2CCNCC2)c2sc3nc(-c4ccccc4)ccc3c2n1 | uidA | enzyme activity, inhibitor |  |  | IC50 | 0.05 ± 0.02 µM
C=CCOc1ccc2cc(-c3nn(C(C)C)c4ncnc(N)c34)ccc2c1 | Calcium-dependent protein kinase 4 (Plasmodium falciparum, UniProt Q8IBS5) | kinase activity, inhibitor, Kinase-Glo luminescence |  |  | IC50 | < 0.02 µM
COC(=O)C1=C(C(=O)OC)C2([C@H](Cc3ccccc3)Nc3ccc(OC)cc3)C=CC1O2 (stereo partly drawn) | SUMO-activating enzyme subunit 2 with SAE1 | SUMOylation, inhibitor, AlphaScreen |  | added: SUMO1-RanGAP1 conjugation | IC50 | 12.7 µM
CC(C)=CCC/C(C)=C/CCCCN1[C@@H](COP(=O)(O)CP(=O)(O)O)[C@]1(C)CC/C=C(\C)CCC=C(C)C (relative stereo) | Squalene synthase ERG9 (Saccharomyces cerevisiae, UniProt P29704) | enzyme activity, inhibitor |  | pH 7.2, added: 1.5 mM pyrophosphate, 100 µM [3H]FPP | IC50 | 13.8 ± 3.8 µM
CN(C)c1ccc2c(n1)sc1c(N3CCNCC3)ncnc12 | uidA | enzyme activity, inhibitor |  |  | IC50 | 0.023 ± 0.005 µM
CCOC(=O)NC1CCN(Cc2cc(Cl)c3cccnc3c2O)CC1 | KCNJ13 M125R | ion current, inhibitor, thallium flux | T-REx-HEK293 |  | IC50 | 9.8 µM
COc1cccc(-c2cc(NC(=O)Nc3ccc(C(F)(F)F)cc3)ccc2OC)c1 | Heat shock protein HSP 90-alpha, with Aha1 (HSP90AA1, Homo sapiens, UniProt P07900) | Hsp90-Aha1 interaction, inhibitor, AlphaScreen |  |  | IC50 | 2.83 ± 1.59 µM
O=c1[nH]c2sc3c(c2c(=O)n1O)CCCC3 | Gag-Pol polyprotein, reverse transcriptase RNase H (gag-pol, Human immunodeficiency virus 1, UniProt P03366) | RNase H activity, inhibitor |  | added: HTS-1 RNA/DNA substrate | IC50 | 0.1 ± 0.02 µM
COC(=O)[C@@]1(C)C=C(C(=O)Nc2cc(C(=O)Nc3ccc(Nc4nccc(-c5cccnc5)n4)cc3)ccc2C)C(=O)CC1 | MAPK8 (Homo sapiens, UniProt P45983) | enzyme activity |  | added: glutathione 10 mM | IC50 | 0.013 ± 0.002 µM
Cc1ccc(CN2C(=O)C(O)=C(C(=O)c3cccs3)C2c2ccc(C)cc2)cc1 (racemic) | USP21 (Homo sapiens, UniProt Q9UK80) | enzyme activity, inhibitor, MALDI-TOF |  | 35 min preincubation, 30 °C | IC50 | 13.7 µM
CC(C)(C)c1ccc(C(=O)Nc2cc(Cl)c(F)cc2C(=O)O)cc1 | Phosphotransferase (Trypanosoma brucei, UniProt Q38C42) | hexokinase activity, inhibitor |  |  | IC50 | 2.79 ± 0.1 µM
COc1ccc(Sc2cc(C(=O)N3Cc4ccccc4C3)ccc2O)cc1OC | HSP90AB1 (Homo sapiens, UniProt P08238) | binding, fluorescence polarization |  | added: FITC-geldanamycin tracer | IC50 | 11.6 ± 1.07 µM
O=C(Nc1ccc(-c2ccccc2)cc1)[C@H]1O[C@H](O[C@H]2[C@H](O[C@@H]3O[C@H](C(=O)Nc4ccc(-c5ccccc5)cc4)[C@@H](O[C@H]4O[C@@H](CNS(=O)(=O)O)[C@@H](O)[C@H](O)[C@H]4NS(=O)(=O)O)[C@H]3O)[C@@H](O)[C@H](NS(=O)(=O)O)C[C@@H]2NS(=O)(=O)O)[C@H](NS(=O)(=O)O)[C@@H](O)[C@@H]1O | Heparanase (HPSE, Homo sapiens, UniProt Q9Y251) | enzyme activity, inhibitor, TR-FRET |  |  | IC50 | 2.61 ± 0.41 µM
Cc1ccc(C(C)C)cc1Oc1nccc(-c2c(-c3ccc(C(F)(F)F)cc3)ncn2[C@H]2CC[C@@H](N)C2)n1 | Bromodomain-containing protein 4, BD1 (BRD4, Homo sapiens, UniProt O60885) |  |  |  | IC50 | 0.067 ± 0.018 µM
O=C(NC1CCN(Cc2cc(Cl)c3cccnc3c2O)CC1)c1cccc(C(F)(F)F)c1 | KCNJ13 M125R | ion current, inhibitor, thallium flux | T-REx-HEK293 |  | IC50 | 6.1 µM
Oc1ccc(-c2ccc(Cn3ccnc3)c3ccccc23)cc1 | cyp121 | binding |  |  | Kd | 1.1 ± 0.22 µM
CNc1ccc2c(n1)sc1c(N3CCNCC3)nc(NC)nc12 | Beta-glucuronidase | enzyme activity, inhibitor |  |  | IC50 | 2.4 ± 0.5 µM
